{"data": "Published values pooled from the literature", "note": "Values joined by “and” are separate records of one study, mostly repeats; a detail may differ. ± marks the error that the study gave."}
{"Compound": "Cc1ncsc1-c1ccc(C(C)NC(=O)C2CC(O)CN2C(=O)C(NC(=O)CCCCCCCCCCN2CCCC(Nc3ncc(Cl)c(Nc4ccccc4S(=O)(=O)C(C)C)n3)C2)C(C)(C)C)cc1 (stereo not shown)", "cell line": "22Rv1", "test": "RNA-seq, measured: YEATS2-AS1", "setting": "concentration not given", "scale": "baseline: DMSO", "measurement": "log2 fold change", "result": -1.89}
{"Compound": "CCOc1cncc(-c2ccc(NC(=O)C3(c4ccnc(NS(=O)(=O)C5CC5)n4)CCOCC3)nc2)n1", "cell line": "SK-N-MC", "test": "cell growth or viability, ATP luminescence", "setting": "72 h", "measurement": "IC50", "result": "293 nM"}
{"Compound": "C=CC(=O)N1CCCC(n2c(=O)c3ncccc3n(Cc3ccc(Oc4ccccc4)cc3)c2=O)C1 (stereo not shown)", "cell line": "Rec1", "test": "measured: FST", "setting": "concentration not given", "scale": "baseline: untreated", "measurement": "log2 fold change", "result": 0.952}
{"Compound": "CSC(=NN=C(C)c1ccc(S(=O)(=O)N2CCC(C)CC2)cc1)N(C)C", "cell line": "HCT-116", "test": "flow cytometry", "setting": "3.66 µM (IC50), 72 h", "measurement": "cells in G0/G1 phase", "result": "46.3%"}
{"Compound": "CC[C@H](C)[C@H](NC(=O)[C@H](CCCNC(=N)N)NC(C)=O)C(=O)N[C@H](C(=O)N[C@@H](Cc1ccc(O)cc1)C(=O)N[C@@H](CC(=O)O)C(=O)N[C@@H](CCCNC(=N)N)C(=O)N[C@H]1CCC(=O)NCCCC[C@@H](C(=O)N[C@@H](CS)C(=O)N[C@@H](CCCNC(=N)N)C(N)=O)NC(=O)[C@H](CCSC)NC(=O)[C@H](CC(C)C)NC(=O)[C@H](Cc2ccccc2)NC1=O)[C@@H](C)CC", "cell line": "HeLa stably expressing HaloTag-GFP", "test": "chloroalkane penetration", "setting": "0.74 µM, 4 h, 37 °C", "measurement": "cell uptake", "result": "84 ± 2%"}
{"Compound": "CC(=O)NCC(=O)N[C@@H](Cc1ccccc1)C(=O)N[C@@H](Cc1ccccc1)C(=O)N[C@@H](Cc1ccc(O)cc1)C(=O)NCC(=O)N[C@@H](Cc1ccc(O)cc1)C(=O)NCC(=O)N[C@@H](CO)C(=O)N[C@@H](CO)C(=O)N[C@@H](CO)C(=O)N[C@@H](CCCNC(=N)N)C(=O)N[C@@H](CCCNC(=N)N)C(=O)N[C@@H](C)C(=O)N1CCC[C@H]1C(=O)N[C@@H](CCC(N)=O)C(=O)N[C@H](C(=O)O)[C@@H](C)O", "cell line": "mouse dermal papilla cells", "test": "western blot", "setting": "100 nM", "measurement": "AKT phosphorylation", "result": "increased"}
{"Compound": "Cn1ncc(-c2ccc3c(=O)[nH]nc(CN)c3c2)c1-c1c(F)c(Cl)cc(OC2CC2)c1C#N", "cell line": "SUM-159-PT", "test": "cell viability, inhibitor, CellTiter-Glo", "setting": "120 h, baseline-subtracted", "measurement": "IC50", "result": "4090 nM"}
{"Compound": "CC(C)(C)c1cc(-c2ccc3cc4ccccc4nc3n2)nc(-c2ccc3cc4ccccc4nc3n2)c1.[Cl-].[Cl-].[Ru+2].c1ccc2cc3nc4c5cccnc5c5ncccc5c4nc3cc2c1", "cell line": "B16-F10", "test": "resazurin", "setting": "added: light 733 nm, 9 mW, 100 J/cm2", "measurement": "EC50", "result": "53400 nM"}
{"Compound": "NC(=O)c1ccc(-c2ccccc2Cl)c2c3c([nH]c12)CC[C@@H](N)C3", "cell line": "HuCCT-1", "test": "cell growth or viability", "measurement": "IC50", "result": "6.2 nM"}
{"Compound": "CC(C)(C)c1cc(-c2ccc3cccnc3n2)nc(-c2ccc3cccnc3n2)c1.COc1ccncc1.[Cl-].[Cl-].[Ru+2].c1ccc2cc3nc4c5cccnc5c5ncccc5c4nc3cc2c1", "cell line": "B16-F10", "test": "cell viability", "setting": "light 633 nm, 100 J/cm2", "measurement": "EC50", "result": "1220 ± 10 nM"}
{"Compound": "O=C(C[Se]C(=O)c1cc2ccccc2s1)Nc1cccc(C(F)(F)F)c1", "cell line": "OVCAR-4", "test": "cell growth or viability, SRB", "measurement": "GI50", "result": "500 nM"}
{"Compound": "CO[C@@H]1[C@@H](OC(N)=O)[C@@H](O)[C@H](Oc2ccc3c(O)c(NC(=O)c4ccc(O)c(CC=C(C)C)c4)c(=O)oc3c2C)OC1(C)C", "cell line": "DLD-1 BRCA2-/-", "setting": "250 µM, replicate A", "scale": "baseline: untreated", "measurement": "colony survival", "result": "0.339%"}
{"Compound": "Cn1ncc2cc(-c3cncc(Cl)c3N3CCC4(CCNC4=O)CC3)ccc21", "cell line": "LS174T", "test": "gene expression, microarray, measured: PDK1 mRNA", "setting": "concentration not given, 24 h", "scale": "baseline: untreated cells", "measurement": "log2 fold change", "result": 2.16}
{"Compound": "N#Cc1cccc(/C=C/C(=O)c2ccc(O)cc2)c1", "cell line": "U-87 MG", "test": "measured: ABT1", "setting": "concentration not given", "scale": "baseline: untreated", "measurement": "fold change", "result": 0.055}
{"Compound": "COc1cc(N2CCN(C(=O)CCOCCNC(=O)[C@@H]3CCCN3)CC2)ccc1Nc1ncc(Cl)c(Nc2ccccc2P(C)(C)=O)n1", "cell line": "NCI-H3122", "test": "flow cytometry", "setting": "500 nM, 24 h", "measurement": "G2 phase cells", "result": "9.5% and 8.99% and 10.3%"}
{"Compound": "CNS(=O)(=O)Nc1nccc(Cc2c(C)c3ccc(Oc4ncccc4F)cc3oc2=O)c1F", "cell line": "NOMO-1", "test": "cell viability", "setting": "7 days", "measurement": "IC50", "result": "> 1000 nM"}
{"Compound": "CC1(C)CC[C@@]2(CO)C(=C3C=C[C@@H]4[C@@]5(C)CC[C@H](O)[C@@](C)(CO)[C@@H]5CC[C@@]4(C)[C@]3(C)C[C@@H]2O)C1", "cell line": "HepG2, SIRT1 siRNA", "test": "Western blot, measured: PGC-1α", "setting": "concentration not given, high dose, unit not given, added: ethanol", "scale": "baseline: β-actin", "measurement": "protein level", "result": "0.746 and 1.11 and 0.926"}
{"Compound": "CCN(CC)CC(=O)Nc1cccc(-n2cc(-c3ccc4ccc(-c5cn(-c6cccc(NC(=O)CN(CC)CC)c6)nn5)cc4c3)nn2)c1", "cell line": "RCC4", "test": "PCR angiogenesis array, measured: IGF1", "setting": "5 x IC50, 4 h, normoxia", "scale": "baseline: untreated", "measurement": "fold regulation", "result": -1.39}
{"Compound": "CN1CCCNC(=O)c2cccc(c2)C(=O)NCCCN(C)CCCNc2cccc3c2C(=O)c2cccc(c2C3=O)NCCC1", "cell line": "SAS", "test": "RNA-Seq, measured: WWC2 mRNA", "setting": "1 µM, 6 h", "scale": "baseline: untreated cells", "measurement": "log2 fold change", "result": -1.18}
{"Compound": "Nc1ccc[n+]([Pt-2]([Cl])([Cl])[n+]2cccc(N)c2Cl)c1Cl", "cell line": "BEAS-2B", "test": "cell viability, MTT", "setting": "24 h", "measurement": "IC25", "result": "18500 nM"}
{"Compound": "Cc1cc(Cl)cc(-c2ccnc3cc(CN4C(=O)C5C(C4=O)C5(C)C)sc23)c1C[C@@H]1CNCCO1 (stereo partly shown)", "cell line": "CHP-212 parental (wild-type USP7)", "test": "PI flow cytometry", "setting": "0.1 µM, 24 h", "measurement": "cells in G1 phase", "result": "57.6% and 63.9% and 62%"}
{"Compound": "Cc1ccncc1.[Cl-].[Cl-].[Ru+2].c1cc(-c2ccc3cccnc3n2)nc(-c2ccc3cccnc3n2)c1.c1ccc2cc3nc4c5cccnc5c5ncccc5c4nc3cc2c1", "cell line": "B16-F10", "test": "resazurin", "setting": "added: light 733 nm, 100 J/cm2", "scale": "baseline: dark EC50 over light EC50", "measurement": "phototoxicity index", "result": 36}
{"Compound": "O=C(C[Se]C(=O)c1ccc2ccccc2n1)Nc1cccc(C(F)(F)F)c1", "cell line": "NCI60 breast subpanel", "test": "cell growth", "setting": "10 µM, 48 h, one-dose", "measurement": "mean growth percent", "result": "-76.7%"}
{"Compound": "CC(=O)NCCCN(C)CCCNc1cccc2c1C(=O)c1cccc(NCCCN(C)CCCNC(C)=O)c1C2=O", "cell line": "SAS", "test": "RNA-Seq, measured: HSPA5 mRNA", "setting": "1 µM, 6 h", "scale": "baseline: untreated cells", "measurement": "log2 fold change", "result": -0.435}
{"Compound": "CC(C)c1ccc(N(C)c2ccc3c(c2)OCC[C@H]3CNc2cnccc2C(=O)O)cc1", "cell line": "SW48", "test": "cell growth or viability, ATP luminescence", "setting": "7 days", "measurement": "IC50", "result": "50 nM"}
{"note": "A few entries again:"}
{"Compound": "CNS(=O)(=O)Nc1nccc(Cc2c(C)c3ccc(Oc4ncccc4F)cc3oc2=O)c1F", "cell line": "NOMO-1", "test": "cell viability", "setting": "7 days", "measurement": "IC50", "result": "> 1000 nM"}
{"Compound": "CC(C)(C)c1cc(-c2ccc3cccnc3n2)nc(-c2ccc3cccnc3n2)c1.COc1ccncc1.[Cl-].[Cl-].[Ru+2].c1ccc2cc3nc4c5cccnc5c5ncccc5c4nc3cc2c1", "cell line": "B16-F10", "test": "cell viability", "setting": "light 633 nm, 100 J/cm2", "measurement": "EC50", "result": "1220 ± 10 nM"}
{"Compound": "CSC(=NN=C(C)c1ccc(S(=O)(=O)N2CCC(C)CC2)cc1)N(C)C", "cell line": "HCT-116", "test": "flow cytometry", "setting": "3.66 µM (IC50), 72 h", "measurement": "cells in G0/G1 phase", "result": "46.3%"}
